Measurements pooled from the literature.
Protocols differ between the studies behind these lines. Numbers after ± are the reported error.
UniProt P08684, sequence (whole entry, looked up): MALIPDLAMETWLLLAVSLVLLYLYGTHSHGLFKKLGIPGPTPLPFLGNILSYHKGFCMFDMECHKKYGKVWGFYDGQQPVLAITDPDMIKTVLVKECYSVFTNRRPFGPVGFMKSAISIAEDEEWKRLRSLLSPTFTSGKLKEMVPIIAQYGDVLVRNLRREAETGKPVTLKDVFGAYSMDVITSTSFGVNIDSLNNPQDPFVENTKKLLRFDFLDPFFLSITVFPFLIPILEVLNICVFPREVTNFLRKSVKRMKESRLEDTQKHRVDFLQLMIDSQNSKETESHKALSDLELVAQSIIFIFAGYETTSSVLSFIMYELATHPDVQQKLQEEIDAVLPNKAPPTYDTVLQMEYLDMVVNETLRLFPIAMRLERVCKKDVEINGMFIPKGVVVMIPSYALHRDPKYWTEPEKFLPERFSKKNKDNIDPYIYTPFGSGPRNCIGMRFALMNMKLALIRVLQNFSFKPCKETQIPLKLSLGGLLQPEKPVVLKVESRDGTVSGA
UniProt Q9UNQ0, sequence (whole entry, looked up): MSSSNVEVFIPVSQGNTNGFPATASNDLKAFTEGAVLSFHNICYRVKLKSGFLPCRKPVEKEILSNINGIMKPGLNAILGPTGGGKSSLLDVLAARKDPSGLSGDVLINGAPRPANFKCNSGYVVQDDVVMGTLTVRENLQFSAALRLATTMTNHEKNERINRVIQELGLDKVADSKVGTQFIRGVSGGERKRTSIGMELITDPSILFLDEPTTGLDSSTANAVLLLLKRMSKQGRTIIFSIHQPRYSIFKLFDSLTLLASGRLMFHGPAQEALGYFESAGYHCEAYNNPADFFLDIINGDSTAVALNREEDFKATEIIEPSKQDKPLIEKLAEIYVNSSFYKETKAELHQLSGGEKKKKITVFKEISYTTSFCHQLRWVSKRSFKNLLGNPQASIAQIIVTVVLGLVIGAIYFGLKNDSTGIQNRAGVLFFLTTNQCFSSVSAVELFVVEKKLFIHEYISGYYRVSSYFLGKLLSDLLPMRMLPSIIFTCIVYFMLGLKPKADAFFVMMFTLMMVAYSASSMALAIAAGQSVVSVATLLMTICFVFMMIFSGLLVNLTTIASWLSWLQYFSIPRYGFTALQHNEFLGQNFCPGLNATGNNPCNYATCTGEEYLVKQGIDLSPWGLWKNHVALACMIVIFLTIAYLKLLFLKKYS

`CC(C)(O)c1ccccc1CC[C@H](c1cccc(/C=C/c2ccc3ccc(Cl)cc3n2)c1)S(=O)(=O)CC1(CC(=O)O)CC1` gave an inhibition of less than 0% (Cytochrome P450 3A4 (CYP3A4, Homo sapiens, UniProt P08684); inhibitor; 10 µM, pH 7.4).
With `O=C(O)CCC(NP(=O)(O)OCCC[C@@H](NC(=O)CCC(NC(=O)CCCCCNC(=O)CCCCCNC(=O)c1ccc([18F])cc1)C(=O)O)C(=O)O)C(=O)O` (stereo partly shown) the tracer uptake was 0.23 %ID/g (CWR22Rv1 tumour model; host not given, heart; intravenous, 1 h, tumour-bearing).
For `Nc1nc2c([C@@H]3O[C@@H]4COP(=O)(O)O[C@H]5[C@@H](O)[C@H](c6scc7c(=O)[nH]c(N)nc67)O[C@@H]5COP(=O)(O)O[C@H]4[C@H]3O)scc2c(=O)[nH]1`, “emission quantum yield” read 0.077 (water).
With `C[n+]1ccc(Nc2ccc(O)cc2)c2ccc(Cl)cc21` the CC50 was greater than 100 µM (Vero WNV replicon cells; 24 h).
`O=C1c2c(ccc(O)c2O)CN1Cc1ccc(F)c(Cl)c1` has a CC50 of 5.2 ± 0.2 µM (HOS; ATPlite; 48 h).
With `O=C(O)CCC(NP(=O)(O)OCCC[C@@H](NC(=O)CCC(NC(=O)c1ccc([18F])cc1)C(=O)O)C(=O)O)C(=O)O` (stereo partly shown) the tracer uptake was 0.29 %ID/g (CWR22Rv1 tumour model; host not given, muscle; intravenous, 1 h, tumour-bearing).
`COc1cc(C(=O)NCCOCCOCCOCCNC(=O)c2ccc([18F])nc2)ccc1NC(=O)C1NC(CC(C)(C)C)C(C#N)(c2ccc(Cl)cc2F)C1c1cccc(Cl)c1F` (stereo not shown) gave a tracer uptake of 4.08 %ID/g (HepG2 tumour model; host not given, spleen; 30 min, tumour-bearing).
For `COc1ccc(CNc2nc(N3CCC[C@H]3CO)ncc2C(=O)NN)cc1Cl`, the revertant count was 264 ± 14 (Salmonella typhimurium; TA102; 62.5 µg/plate).
`CCC(=O)N(C)c1ccc(Cl)c(Cl)c1` gave a revertants of 15 ± 2 revertants/plate (Salmonella typhimurium; Ames test; TA98; 0.10 mg/plate, with rat liver S9).
`COc1ccc(CNc2nc(N3CCC[C@H]3CO)ncc2C(=O)NNC(=O)c2cnc(N3CCC[C@H]3CO)nc2NCc2ccc(OC)c(Cl)c2)cc1Cl` gave a revertant count of 28 ± 9 (Salmonella typhimurium; TA98; 125 µg/plate, 48 h).
For `C[C@@](O)(C(F)F)[C@H](NC(=O)c1ccc(C#CC#CC2CC2)cc1)C(=O)NO`, the Vd was 4 L/kg (dog, plasma; intravenous, 10 mg/kg).
With `CN[C@](C)(C[18F])C(=O)O` the tracer uptake was 2.7 %ID/g (MDA-MB-468 tumour model; host not given, blood; 15 min, tumour-bearing).
`O=C1c2ccccc2-c2c1c1c(O)cccc1n2Cc1ccccc1` gave an inhibition of 68% (Broad substrate specificity ATP-binding cassette transporter ABCG2 (ABCG2, Homo sapiens, UniProt Q9UNQ0); mitoxantrone efflux, inhibitor, flow cytometry; HEK293 transfected with ABCG2; 10 µM, 30 min, with: mitoxantrone 5 µM; baseline: Ko143 1 µM).

Some of these lines once more:
For `COc1ccc(CNc2nc(N3CCC[C@H]3CO)ncc2C(=O)NN)cc1Cl`, the revertant count was 264 ± 14 (Salmonella typhimurium; TA102; 62.5 µg/plate).
`CCC(=O)N(C)c1ccc(Cl)c(Cl)c1` gave a revertants of 15 ± 2 revertants/plate (Salmonella typhimurium; Ames test; TA98; 0.10 mg/plate, with rat liver S9).
